Measured values from different studies.
Parts stem from different laboratories: compare values within a part only. Substitutions count along the parent as printed.

Study 1
Target: OGT, full length, His-tagged (human)
Method: phage display, sequencing
Medium: in vitro
Tested at: 1 µg OGT
Setting: single substitutions, 15-mer displayed peptide, unchanged parent 5.27
Reference: input library
Reading: higher = stronger binding
Starting sequence: peptide; GDFPVMFMPKYSIIY
Substitution | fold enrichment [fold]
GDFPVMAMPKYSIIY [F7A] | 0.809
GDWPVMFMPKYSIIY [F3W] | 6.71
GDFPVMFMPKYSIYY [I14Y] | 1.23
GDFPVMFMPKYSIIH [Y15H] | 1.38
GDFPVMFMPKYSNIY [I13N] | 0.937
GDFPVMFMHKYSIIY [P9H] | 8.17
GDFPVMFMPKYSIIG [Y15G] | 0.886
GDFPVMFMPKYSISY [I14S] | 1.84
GDFPVMFMPKYSIIT [Y15T] | 1.57
GDFPVMFMPKYSPIY [I13P] | 0.964
GAFPVMFMPKYSIIY [D2A] | 5.6
NDFPVMFMPKYSIIY [G1N] | 7.17
GDLPVMFMPKYSIIY [F3L] | 4.54
GDFPTMFMPKYSIIY [V5T] | 8.13
KDFPVMFMPKYSIIY [G1K] | 4.94
GDFPVMTMPKYSIIY [F7T] | 1.35

Study 2
Target: Prothrombin, mature alpha-thrombin (F2, Homo sapiens, UniProt P00734)
Method: aptamer microarray, sandwich
Molecule type: DNA with 2'F-ANA
Medium: in vitro
Tested at: 200 nM
Setting: whole 15-mer aptamer, many near background
Added: Cy3 exosite-II aptamer, 400 nM
Reading: higher = stronger binding
Oligonucleotide: GGTTGGTGTGGTTGG
Modification | mean fluorescence intensity [a.u.]
2'F-ANA at 1 2 3 4 5 6 7 11 12 14 | 51.9
2'F-ANA at 3 4 8 9 11 12 13 | 626
2'F-ANA at 1 2 3 7 10 11 12 14 15 | 75.6
2'F-ANA at 1 4 6 7 10 | 56.9
2'F-ANA at 2 4 5 6 7 8 9 10 14 | 50.2
2'F-ANA at 1 2 4 5 6 8 9 10 12 13 | 46.7
2'F-ANA at 4 5 6 7 10 11 13 14 15 | 49.5
2'F-ANA at 2 5 7 8 9 10 12 13 14 15 | 49
2'F-ANA at 4 7 12 14 | 168
2'F-ANA at 4 5 6 7 8 10 11 12 14 15 | 50.1
2'F-ANA at 2 3 4 7 8 11 13 14 15 | 247
2'F-ANA at 1 2 3 4 6 7 8 10 11 15 | 65.6
2'F-ANA at 3 8 10 12 13 15 | 515
2'F-ANA at 3 4 6 8 11 14 | 290
2'F-ANA at 6 7 8 10 11 | 151
2'F-ANA at 4 5 7 9 12 13 15 | 94
2'F-ANA at 3 4 6 7 9 12 13 15 | 518
2'F-ANA at 1 3 4 5 6 7 9 10 11 12 13 14 15 | 46.4
2'F-ANA at 1 3 4 5 6 7 9 10 15 | 52.1
2'F-ANA at 2 3 4 7 8 9 10 12 15 | 364
2'F-ANA at 1 2 3 6 8 11 14 15 | 69.2
2'F-ANA at 3 5 6 12 13 15 | 175
2'F-ANA at 1 4 7 8 10 13 15 | 53.6
2'F-ANA at 2 5 7 10 11 12 13 15 | 51.4
2'F-ANA at 2 8 10 11 12 13 14 15 | 83.9

Study 3
Target: ABI1, truncated, D143A, DHFR fusion (Arabidopsis thaliana)
Method: DHFR PCA, deep sequencing
Medium: yeast
Setting: methotrexate growth selection, single substitutions
Added: (+)-ABA 4.8 µM
Reference: wild-type fitted maximum
Reading: higher = stronger binding
Starting sequence: PYL1, truncated, DHFR fusion (Arabidopsis thaliana); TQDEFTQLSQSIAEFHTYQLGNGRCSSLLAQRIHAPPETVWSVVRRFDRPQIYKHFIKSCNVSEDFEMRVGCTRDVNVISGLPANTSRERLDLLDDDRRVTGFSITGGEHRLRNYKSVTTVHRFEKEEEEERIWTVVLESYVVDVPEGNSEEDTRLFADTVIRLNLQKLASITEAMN; partner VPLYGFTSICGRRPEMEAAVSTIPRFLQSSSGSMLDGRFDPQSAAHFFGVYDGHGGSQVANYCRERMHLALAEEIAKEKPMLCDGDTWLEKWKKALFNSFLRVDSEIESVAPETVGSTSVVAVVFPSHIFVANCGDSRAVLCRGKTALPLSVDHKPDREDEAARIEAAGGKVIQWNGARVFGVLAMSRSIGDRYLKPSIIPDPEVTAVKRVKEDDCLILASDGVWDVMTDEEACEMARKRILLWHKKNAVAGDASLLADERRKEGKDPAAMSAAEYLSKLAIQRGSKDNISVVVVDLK
Substitution | relative binding score [%]
P83K | -5.25
F66H | 42.3
L8H | 27.7
V161E | -5.33
D48H | 0.152
L20G | 72.6
T120I | -3.79
Q51G | 32
G107E | 30.4
N149P | -0.222
R90K | 58.5
H34S | 69
Y141I | 10.9
L166H | 32.8
R123V | 27.4
F15Q | -3.37
P50Y | 9.14

Study 4
Target: CCND1, cyclin fold, Cln2 fusion (human)
Method: yeast growth competition, sequencing
Medium: yeast
Setting: weak parent motif
Reference: not given
Reading: higher = stronger binding
Starting sequence: CDT1 docking peptide (human); PPARRRLRLSVDE; partner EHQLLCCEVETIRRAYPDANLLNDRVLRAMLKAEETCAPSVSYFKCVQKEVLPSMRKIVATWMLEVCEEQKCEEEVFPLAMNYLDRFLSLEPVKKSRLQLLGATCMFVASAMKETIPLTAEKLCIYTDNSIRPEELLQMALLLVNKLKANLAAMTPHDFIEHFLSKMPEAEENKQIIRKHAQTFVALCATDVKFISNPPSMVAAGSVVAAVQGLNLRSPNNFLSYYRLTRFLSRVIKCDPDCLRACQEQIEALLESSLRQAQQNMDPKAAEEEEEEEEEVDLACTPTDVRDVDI
Substitution | normalised enrichment score
PPARRRARLSVDE [L7A] | 0.477
PPARRRLRFSVDE [L9F] | 0.666
PPARRRLRLSADE [V11A] | -0.0406
PPARARARLSVDE [R5A L7A] | -0.225
PPARKRLRLSVDE [R5K] | -0.217
PPARRRLRLAVDE [S10A] | -0.585
PAARRRLRLSVDE [P2A] | 0.0547
APARRRLRLSVDE [P1A] | -0.253
PPARARLRLSVDE [R5A] | -0.337

Study 5
Target: RING finger protein unkempt homolog, zinc fingers 1-6, GST-SBP tag (UNK, Homo sapiens, UniProt Q9C0B0, residues 30-357)
Sequence of UniProt Q9C0B0 (30-357, looked up): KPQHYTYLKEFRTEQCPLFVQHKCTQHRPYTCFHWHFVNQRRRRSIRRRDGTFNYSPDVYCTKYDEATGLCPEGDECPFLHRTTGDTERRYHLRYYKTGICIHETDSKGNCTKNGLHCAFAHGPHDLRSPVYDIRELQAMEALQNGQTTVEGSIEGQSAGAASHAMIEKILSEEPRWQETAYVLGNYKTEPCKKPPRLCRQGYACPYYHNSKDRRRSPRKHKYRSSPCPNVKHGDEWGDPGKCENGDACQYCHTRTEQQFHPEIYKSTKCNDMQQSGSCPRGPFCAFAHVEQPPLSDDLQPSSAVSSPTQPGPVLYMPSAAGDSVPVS
Method: RNA Bind-n-Seq
Molecule type: RNA
Medium: in vitro
Tested at: not given
Setting: RNA with constant flanks, human-mouse chimeric sites, ends assumed
Reference: input RNA pool
Reading: higher = stronger binding
All sequences stand within: GGGAGUUCUACAGUCCGACGAUC … CAACAGAGGAUUGAGCAUCA
Oligonucleotide | bound/input enrichment
UACAUCACCAAUGUCCUACAAAAUCCUGACUUGGCUCUGAGAAUGGCUGUGCGGAACAACUUAGCCGGUGCUGAAGAACUCUUUGCCCGGAAAUUUAAUGCUCUCUUCGCCCAGGGAAAC | 0.451 ratio
AAAGGCAAAAAGGGCAGCUGUGUCAUUUCAUAAGUAAAACUGCAUCCGGGAAAUUCUGUUCUUUUGUUUAAUUUUCCCCCAAAUGAAGCCAAAGUGUGUGUUGAAGAACUGAGAAAAAAU | 0.255 ratio
CUGAAAAACACAGAUAUCAAAGUUGUUGAUUUUGGAAGUGCAACAUAUGAUGAUGAACAUCACAGUACUUUGGUGUCUACCCGGCACUACAGAGCUCCCGAGGUCAUUUUGGCUUUAGGU | 0.543 ratio
CAACCUCAGAGCCCAGACUUCCUGGAUAUUACCAACCCCAAAGCCGUAUUAGAAAAUGCAUUGAGAAACUUCGCCUGUCUGACGACUGGAGAUGUGAUUGCUAUCAACUACAAUGAGAAG | 0.519 ratio
AUCAAGUACUUUGGGGACAUCAUUAGUGUGGGACAGAGAUUGUUGCAAGGAGCUCGGAUCUUAGGGAUUCCAGUUAUCAUAACGGAACAAUACCCCAAAGGACUUGGCAGCACCGUUCAA | 0.194 ratio
UCUGGUCACACUCGUGUGUAUGGUGUUUGCUUUGUUGACACUUCACUGGGAAAGUUUUUCAUCGGCCAGUUUUCGGAUGACCGCCACUGUUCCAGAUUUAGGACGCUAGUGGCUCACUAU | 0.255 ratio
AAAGGCAAAAAGGGCAGUUCAUAAAUAUCAUAAGUAACUCUGGGGGAGGGAAAUUCUGUUCUUUUGUUUAAUUUUCCCCCAAAUGAAGCCAAAGUGUGUGUUGAAGAACUGAGAAAAAAU | 0.421 ratio
AUGGAGAAGGAUUCUCUGCCCCGCUUUGUGCGCUCUGAGUUUUAUCAGGAGUUAAUCAAGUAGUCAUCUGGUCAGGCUUCCAAAAGUUGCCCUGUGAGUUGAGUUACAUCCUUUGUAGCA | 0.191 ratio
UCAUUUUUCUCUUUUCUUUCUUUCCUUUAGGAAAAGCCUAAAGAUUAGUAAGAAAAGAAAACAGAAGCCAUGUUUCGAAGACCUGUAUUACAGGUAUUUCGUCAGUUUGUAAGACAUGAG | 0.172 ratio
AGAAUCUGUGACUGGCUUUACUUAAUUGGUCAUUGAUAGCUUAACAAACAUGGAGAUAAGAUUAGAAGUUUUGACAUCAACAGGUAUUAAGCAGAAAAAACCAUGGCCACGUGUCUCCUG | 0.409 ratio
GGACAUCUGUCAAAUUGUUAUGUUCCUGUGAAACAAGUGAGCACUUUGAUACACUUCAUCUGCUUGUACAUCUGUAUUUGUAUAAUAUGUAAAUAUGUUAAUCCAAGCAAUGUGUCACUU | 0.209 ratio

Some of these lines once more (study 2):
Modification | mean fluorescence intensity [a.u.]
2'F-ANA at 2 4 5 6 7 8 9 10 14 | 50.2
2'F-ANA at 4 7 12 14 | 168
2'F-ANA at 3 4 8 9 11 12 13 | 626
2'F-ANA at 2 3 4 7 8 11 13 14 15 | 247
2'F-ANA at 4 5 6 7 10 11 13 14 15 | 49.5
2'F-ANA at 3 4 6 8 11 14 | 290
2'F-ANA at 1 2 3 4 5 6 7 11 12 14 | 51.9
2'F-ANA at 3 5 6 12 13 15 | 175
2'F-ANA at 3 8 10 12 13 15 | 515
2'F-ANA at 2 3 4 7 8 9 10 12 15 | 364
2'F-ANA at 2 5 7 10 11 12 13 15 | 51.4
2'F-ANA at 4 5 6 7 8 10 11 12 14 15 | 50.1
2'F-ANA at 1 2 3 4 6 7 8 10 11 15 | 65.6
